Results pooled from the literature.
Numbers after ± are the reported error.
Organism: Escherichia coli

SMILES	assay	test system	setting	scale	MIC
O=[N+]([O-])c1cccc(S(=O)(=O)NC[C@@H](O)[C@@H]2CCc3cc(F)ccc3O2)c1	microbial growth	–	–	–	12.1 µg/mL
COc1ccc2ccc3c(c2c1)C=[N+]1C2CCCCC2[N+]2=Cc4c(C)cccc4[O][Au-]21[O]3.F[P-](F)(F)(F)(F)F (centres unmarked)	bacterial growth, broth microdilution	carbapenem-resistant clinical isolate	24 h	–	20 µM
C/C(=N\Nc1nc(C)cs1)c1ccc2c(c1)sc1nc(=O)c(C#N)cn12	broth microdilution	–	–	–	< 41 µg/mL
CCCCCCCCCCN1C(=O)/C(=N\NC(N)=S)c2cc(C)ccc21	broth microdilution	25922	18 h, 37 °C	–	> 192 µg/mL
CCn1cc(C(=O)NCCNCCO)c(=O)c2cc(OC)c(OCc3cccc(Br)c3)cc21	–	ATCC 25922	–	≥80% growth inhibition	< 0.25 µg/mL
COc1ccc2ccc3c(c2c1)C=[N+]1C2CCCCC2[N+]2=Cc4cc(C)ccc4[O][Au-]21[O]3.F[P-](F)(F)(F)(F)F (centres unmarked)	bacterial growth, broth microdilution	carbapenem-resistant clinical isolate	24 h	–	> 20 µM
CC(C)=CCc1cc(-c2coc3cc(O)c(CC=C(C)C)c(O)c3c2=O)ccc1O	–	TISTR 780	–	–	128 µg/mL
CCn1cc(/C=C/c2sc3ccccc3[n+]2CC)c2ccccc21	microbial growth, broth dilution	780	–	–	16 µg/mL
CSCC[C@H](NC(=O)[C@H](CCCNC(=N)N)NC(=O)[C@H](Cc1c[nH]c2ccccc12)NC(=O)[C@H](CCC(N)=O)NC(=O)[C@H](Cc1c[nH]c2ccccc12)NC(=O)[C@H](CCCNC(=N)N)NC(=O)[C@@H](N)CCCNC(=N)N)C(=O)N[C@@H](CCCCN)C(=O)N[C@@H](CCCCN)C(=O)N[C@@H](CC(C)C)C(=O)NCC(=O)NCCCC[C@H](NC(=O)CNC(=O)[C@H](CC(C)C)NC(=O)[C@H](CCCCN)NC(=O)[C@H](CCCCN)NC(=O)[C@H](CCSC)NC(=O)[C@H](CCCNC(=N)N)NC(=O)[C@H](Cc1c[nH]c2ccccc12)NC(=O)[C@H](CCC(N)=O)NC(=O)[C@H](Cc1c[nH]c2ccccc12)NC(=O)[C@H](CCCNC(=N)N)NC(=O)[C@@H](N)CCCNC(=N)N)C(=O)NCCCCCC(=O)N[C@@H](CSSC[C@H](NC(=O)CCCCCNC(=O)[C@H](CCCCNC(=O)CNC(=O)[C@H](CC(C)C)NC(=O)[C@H](CCCCN)NC(=O)[C@H](CCCCN)NC(=O)[C@H](CCSC)NC(=O)[C@H](CCCNC(=N)N)NC(=O)[C@H](Cc1c[nH]c2ccccc12)NC(=O)[C@H](CCC(N)=O)NC(=O)[C@H](Cc1c[nH]c2ccccc12)NC(=O)[C@H](CCCNC(=N)N)NC(=O)[C@@H](N)CCCNC(=N)N)NC(=O)CNC(=O)[C@H](CC(C)C)NC(=O)[C@H](CCCCN)NC(=O)[C@H](CCCCN)NC(=O)[C@H](CCSC)NC(=O)[C@H](CCCNC(=N)N)NC(=O)[C@H](Cc1c[nH]c2ccccc12)NC(=O)[C@H](CCC(N)=O)NC(=O)[C@H](Cc1c[nH]c2ccccc12)NC(=O)[C@H](CCCNC(=N)N)NC(=O)[C@@H](N)CCCNC(=N)N)C(N)=O)C(N)=O	broth microdilution	ATCC 43827	24 h, 37 °C	–	7 µM
O=C1OCC(NCCc2ccc(Cl)cc2)N1/N=C/c1ccc([N+](=O)[O-])o1 (centres unmarked)	microbial growth, broth dilution	ATCC25922	18 h	–	3.12 µg/mL
CCN(CC)CCCN1/C(=C/c2cc[n+](C)c3ccccc23)Sc2ccccc21	microbial growth, broth dilution	ATCC 8739, ATCC8739	–	–	8 µg/mL
CC[C@@H](C)[C@@H](NC(=O)[C@@H](C)N)C(=O)N[C@H](CCCCN)C(=O)N[C@@H](C(=O)N[C@H](CCCNC(=N)N)C(=O)N[C@H](CCCCN)C(=O)N[C@H](CC(C)C)C(=O)N[C@H](Cc1ccccc1)C(=O)N[C@H](CCCCN)C(=O)N[C@H](CCCCN)C(=O)N[C@H](CC(C)C)C(=O)N[C@H](CC(C)C)C(=O)N[C@H](CCCNC(=N)N)C(N)=O)[C@H](C)CC	broth microdilution	ATCC 25922, LB medium	16 to 20 h, 37 °C	–	12.5 to 25 µg/mL
CC(C)C(O)C(NC(=O)[C@H](Cc1ccc(O)cc1)NC(=O)C(Cc1ccc(O)c(Cl)c1)[N+](C)(C)C)C(=O)N[C@@H](C)C(=O)O (some centres unmarked)	–	ATCC 25922	–	–	> 100 µM
COc1ccc2c3c(oc2c1CC=C(C)C)-c1cc(CC=C(C)C)c(O)cc1OC3	–	TISTR 780	–	–	128 µg/mL
CC1=C[C@@H](C)[C@H]2[C@@H]3C(=O)C(Cl)(Cl)C(=O)[C@H](C)C(=O)O[C@@H](C)/C=C/C=C\[C@@H](C)[C@@H]3C=C[C@@H]2C1	microbial growth, broth dilution	K12, BW25113	–	–	> 3.2 µg/mL
CCCCO[C@H]1[C@H](O)[C@@H](N)[C@@H](O[C@H]2[C@H](O[C@@H]3O[C@H](CO)[C@@H](O[C@H]4O[C@@H](CN)[C@@H](O)[C@H](O)[C@H]4N)[C@H]3O)[C@@H](O)[C@H](N)C[C@@H]2N)O[C@@H]1CO	broth microdilution	clinical isolate AG 003	–	–	64 µg/mL
CC(CCCOC(=O)CCC[N+](C)(C)C)C1CCC2C3CCC4CC(OC(=O)CCC[N+](C)(C)C)CCC4(C)C3CCC12C (centres unmarked)	microbial growth, broth dilution	ATCC25922	16 h	–	1 µg/mL
COc1ccc(-c2csc(N/N=C(\C)c3ccc4c(c3)sc3nc(=O)c(C#N)cn34)n2)cc1	broth microdilution	–	–	–	< 39 µg/mL
CCCCc1ccc(N2C(=O)/C(=N\NC(=N)N)c3cc(F)ccc32)cc1	microbial growth, broth dilution	–	18 h	–	48 µg/mL

SMILES	assay	test system	setting	scale	MIC
Cc1[nH]c(=O)c(CNC(=O)c2ccc(C(F)(F)F)nc2)c2c1CCCC2	microbial growth, agar dilution	–	clinical isolate	–	> 128 µg/mL
C=CCO[C@H]1[C@H](O)[C@@H](N)[C@@H](O[C@H]2[C@H](O[C@@H]3O[C@H](CO)[C@@H](O[C@H]4O[C@@H](CN)[C@@H](O)[C@H](O)[C@H]4N)[C@H]3O)[C@@H](O)[C@H](N)C[C@@H]2N)O[C@@H]1CO	microbial growth, broth dilution	–	clinical isolate	–	64 µg/mL
CC1=NN(CNc2ccc(C(=O)O)c(O)c2)C(=O)/C1=N/Nn1c(-c2ccccc2)nc2ccccc2c1=O	microbial growth, broth dilution	–	24 h	–	24.4 µM
CCOC(=O)c1ccc2c(c1)n(CC)[c]([Au-]([Cl])([Cl])[Cl])[n+]2CC	broth dilution	DSM 1116	20 h, 37 °C	–	53.4 ± 8.4 µM
NC(=O)N1CCc2cc(S(=O)(=O)N3CCN(c4cc(C(F)(F)F)cc(Cl)n4)CC3)ccc21	microbial growth, broth dilution	25922	22 h	–	13 µg/mL
S=c1n(CN2CCN(c3ccccn3)CC2)nc(C23CC4CC(CC(C4)C2)C3)n1-c1ccccc1	microbial growth, broth dilution	IFO3301	24 h	–	16 µg/mL
CC(=NNC(=N)N)c1nnn(-c2ccc(C#CC3(O)CCCCC3)cc2)c1C	microbial growth	ATCC25922	–	–	3.9 µg/mL
COCO[C@H]1[C@H](O)[C@@H](N)[C@@H](O[C@H]2[C@H](O[C@@H]3O[C@H](CO)[C@@H](O[C@H]4O[C@@H](CN)[C@@H](O)[C@H](O)[C@H]4N)[C@H]3O)[C@@H](O)[C@H](N)C[C@@H]2N)O[C@@H]1CO	broth microdilution	clinical isolate AG 002	–	–	32 to 64 µg/mL
NC[C@H]1O[C@H](O[C@H]2[C@H](OCCCCCCCCCCCCn3cc(CNc4nc(NCc5cn(CCCCCCCCCCCCO[C@@H]6[C@@H](O)[C@H](N)C[C@H](N)[C@H]6O[C@H]6O[C@H](CN)[C@@H](O)C[C@H]6N)nn5)nc(NCc5cn(CCCCCCCCCCCCO[C@@H]6[C@@H](O)[C@H](N)C[C@H](N)[C@H]6O[C@H]6O[C@H](CN)[C@@H](O)C[C@H]6N)nn5)n4)nn3)[C@@H](O)[C@H](N)C[C@@H]2N)[C@H](N)C[C@@H]1O	microbial growth, broth dilution	ATCC25922	–	–	64 µg/mL
COc1ccc2ccc3c(c2c1)C=[N+]1C2CCCCC2[N+]2=Cc4ccc(C)cc4[O][Au-]21[O]3.F[P-](F)(F)(F)(F)F (centres unmarked)	bacterial growth, broth microdilution	carbapenem-resistant clinical isolate	24 h	–	> 20 µM
O=C1c2ccccc2C(=O)c2c1ccc1c2C(C(=O)Nc2ccccc2Cl)C(=O)C1c1ccccc1 (centres unmarked)	microbial growth	–	–	–	64 µg/mL
C[Si](C)(C)Cc1ccc(C2COC(=O)N2/N=C/c2ccc([N+](=O)[O-])o2)cc1 (centres unmarked)	microbial growth, broth dilution	ATCC25922	18 h	–	> 50 µg/mL
COc1ccc2ccc3c(c2c1)C=[N+]1C2CCCCC2[N+]2=Cc4cccc(C)c4[O][Au-]21[O]3.F[P-](F)(F)(F)(F)F (centres unmarked)	bacterial growth, broth microdilution	carbapenem-resistant clinical isolate	24 h	–	20 µM
NC(=O)C1COC(=O)N1/N=C/c1ccc([N+](=O)[O-])o1 (centres unmarked)	microbial growth, broth dilution	ATCC25922	18 h	–	25 µg/mL
CCCCCCCCCC(=O)NCCCC[C@H](NC(=O)[C@H](CC(C)C)NC(=O)[C@H](CCCCN)NC(=O)[C@H](CCCCNC(=O)[C@H](CC(C)C)NC(=O)[C@H](CCN)NC(=O)[C@H](CCCCNC(=O)[C@H](Cc1ccccc1)NC(=O)[C@@H](N)CCCN)NC(=O)[C@H](Cc1ccccc1)NC(=O)[C@@H](N)CCCN)NC(=O)[C@H](CC(C)C)NC(=O)[C@H](CCN)NC(=O)[C@H](CCCCNC(=O)[C@H](Cc1ccccc1)NC(=O)[C@@H](N)CCCN)NC(=O)[C@H](Cc1ccccc1)NC(=O)[C@@H](N)CCCN)C(N)=O	broth microdilution	W3110	37 °C	–	4 µg/mL
COc1ccc2ccc3c(c2c1)C=[N+]1C2CCCCC2[N+]2=Cc4ccc(OCCN5CCCCC5)cc4[O][Au-]21[O]3.F[P-](F)(F)(F)(F)F (centres unmarked)	bacterial growth, broth microdilution	carbapenem-resistant	24 h	–	20 µM
NC[C@@H]1O[C@H](O[C@H]2[C@@H](O)[C@H](O[C@@H]3[C@@H](O)[C@H](N)C[C@H](N)[C@H]3O[C@H]3O[C@H](CO)[C@@H](OCCO)[C@H](O)[C@H]3N)O[C@@H]2CO)[C@H](N)[C@@H](O)[C@@H]1O	broth microdilution	clinical isolate AG 003	–	–	32 µg/mL
COc1ccc2ccc3c(c2c1)C=[N+]1C2CCCCC2[N+]2=Cc4cccc(OC)c4[O][Au-]21[O]3.F[P-](F)(F)(F)(F)F (centres unmarked)	bacterial growth, broth microdilution	carbapenem-resistant clinical isolate	24 h	–	20 µM
CO[C@H]1CN(c2ccc(C(N)=O)nn2)CC[C@H]1NC(=O)c1[nH]c(C)c(Cl)c1Cl	–	ATCC 25922	–	–	8 µg/mL

For quick reference, copied from above:
SMILES	assay	test system	setting	scale	MIC
COc1ccc2ccc3c(c2c1)C=[N+]1C2CCCCC2[N+]2=Cc4cc(C)ccc4[O][Au-]21[O]3.F[P-](F)(F)(F)(F)F (centres unmarked)	bacterial growth, broth microdilution	carbapenem-resistant clinical isolate	24 h	–	> 20 µM
NC[C@@H]1O[C@H](O[C@H]2[C@@H](O)[C@H](O[C@@H]3[C@@H](O)[C@H](N)C[C@H](N)[C@H]3O[C@H]3O[C@H](CO)[C@@H](OCCO)[C@H](O)[C@H]3N)O[C@@H]2CO)[C@H](N)[C@@H](O)[C@@H]1O	broth microdilution	clinical isolate AG 003	–	–	32 µg/mL
CCCCCCCCCC(=O)NCCCC[C@H](NC(=O)[C@H](CC(C)C)NC(=O)[C@H](CCCCN)NC(=O)[C@H](CCCCNC(=O)[C@H](CC(C)C)NC(=O)[C@H](CCN)NC(=O)[C@H](CCCCNC(=O)[C@H](Cc1ccccc1)NC(=O)[C@@H](N)CCCN)NC(=O)[C@H](Cc1ccccc1)NC(=O)[C@@H](N)CCCN)NC(=O)[C@H](CC(C)C)NC(=O)[C@H](CCN)NC(=O)[C@H](CCCCNC(=O)[C@H](Cc1ccccc1)NC(=O)[C@@H](N)CCCN)NC(=O)[C@H](Cc1ccccc1)NC(=O)[C@@H](N)CCCN)C(N)=O	broth microdilution	W3110	37 °C	–	4 µg/mL
NC(=O)C1COC(=O)N1/N=C/c1ccc([N+](=O)[O-])o1 (centres unmarked)	microbial growth, broth dilution	ATCC25922	18 h	–	25 µg/mL
CO[C@H]1CN(c2ccc(C(N)=O)nn2)CC[C@H]1NC(=O)c1[nH]c(C)c(Cl)c1Cl	–	ATCC 25922	–	–	8 µg/mL
CC1=C[C@@H](C)[C@H]2[C@@H]3C(=O)C(Cl)(Cl)C(=O)[C@H](C)C(=O)O[C@@H](C)/C=C/C=C\[C@@H](C)[C@@H]3C=C[C@@H]2C1	microbial growth, broth dilution	K12, BW25113	–	–	> 3.2 µg/mL
